Assay results gathered from unrelated publications.
Each numbered part is a random draw from the data of one study; scales do not carry over between parts.

Sample 1 — technique: protein-binding microarray; molecule type: double-stranded DNA, one strand shown; medium: in vitro; tested at: 250 nM; notes: 60-bp whole probe; with: salmon DNA 0.4 mg/ml; reference: random background probes; direction: higher = stronger binding; constant ends, left off below: GCCTAGCAC … GTCTTGATTCGCTTGACGCTGCTG
Target: Interferon regulatory factor 5, full length, phosphomimetic (IRF5, Homo sapiens, UniProt Q13568-2, residues 1-514, K96S/S451D/S453D/S456D/S462D)
Sequence | log fluorescence [z-score]
GACGATTCCAGTTTCCAGACGTGCTAG | 0.26
TTAGGGATCGACTATCGGTTAGTGCTA | 6.79
TTATGTATCCTTTTCCTTTAGTGCTAG | 1.23
TTAGATTGCGGGACTGGATTAGTGCTA | -0.114
GACGGTATCCGTCTCGGGACGTGCTAG | 0.012
TTAGGTCTCGCTATCGGTTAGTGCTAG | 4.86

Sample 2 — technique: protein binding microarray; molecule type: double-stranded DNA, one strand shown; medium: in vitro; tested at: not given; reference: not given; direction: higher = stronger binding
Target: Histone acetyltransferase KAT6A, both winged helices, GST fusion (KAT6A, Homo sapiens, UniProt Q92794, residues 1-181)
Notes: 8-mer, flanks averaged, mean of 2 arrays, mostly near background
Construct (chain): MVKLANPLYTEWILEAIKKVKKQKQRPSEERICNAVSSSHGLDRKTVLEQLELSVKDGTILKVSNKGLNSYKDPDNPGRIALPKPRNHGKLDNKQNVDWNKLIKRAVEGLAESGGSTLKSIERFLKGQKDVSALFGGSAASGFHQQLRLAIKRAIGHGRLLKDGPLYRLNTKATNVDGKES
Sequence | E-score
CAGCCCCG | 0.127
CGGGCCCA | -0.0059
CAACGAAA | -0.0089
ACTGGTTC | 0.0242
CAGCGCGA | 0.25

Sample 3 — technique: RNA Bind-n-Seq; molecule type: RNA; medium: in vitro; tested at: not given; reference: input RNA pool; direction: higher = stronger binding
Target: RING finger protein unkempt homolog, zinc fingers 1-6, GST-SBP tag (UNK, Homo sapiens, UniProt Q9C0B0, residues 30-357)
Sequence of UniProt Q9C0B0 (30-357, looked up): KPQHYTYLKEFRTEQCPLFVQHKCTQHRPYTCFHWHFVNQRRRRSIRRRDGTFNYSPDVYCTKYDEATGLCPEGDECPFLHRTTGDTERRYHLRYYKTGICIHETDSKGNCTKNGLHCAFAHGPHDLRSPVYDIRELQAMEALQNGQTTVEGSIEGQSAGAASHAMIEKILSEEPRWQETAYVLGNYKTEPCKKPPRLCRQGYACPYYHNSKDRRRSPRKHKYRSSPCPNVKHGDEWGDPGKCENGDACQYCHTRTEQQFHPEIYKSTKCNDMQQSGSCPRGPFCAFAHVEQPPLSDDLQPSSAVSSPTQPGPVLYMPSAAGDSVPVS
Notes: RNA with constant flanks, human-mouse chimeric sites, ends assumed
Sequence | bound/input enrichment [ratio]
GGGAGUUCUACAGUCCGACGAUCCAGCUGCAGACAGAAAAGGAUGAAAAGGAGCUGUAUAAGGUACAUUUGAAGAAUACAGAAAUAGAAAAUACGAAGCUUGUGUCAGAGAUACAGACUUUAAAGAAUUUAGAUGGGAACAAACAACAGAGGAUUGAGCAUCA | 2.44
GGGAGUUCUACAGUCCGACGAUCAGGAGGAGGUUAAAGGGUGAGAGUGGGAUGGAGGAUUGUGUCAUGGCUCUGGAGACACUGUUCAGUGUUCUGCUUUCUCUGUGCAGACUGAUGGCCCCUUACACGCCCUUUCUGACUGAGCAACAGAGGAUUGAGCAUCA | 0.14
GGGAGUUCUACAGUCCGACGAUCGAUAGGAAAAGCUUGUUGGAGACCCGCUUGCACAUCACUGGUAGAGACCUGAGGUGUCAAAUAGCUGAAACUUUCGGAUUUCAAGAAAAUUACAUCAAGAUCGUAAUAAAUAAGAAACAGCAACAGAGGAUUGAGCAUCA | 0.504

Other studies, line by line
Molecule | target | assay | test system | setting | scale | measurement | result
PhoQ, residues 284 288 289 292 302 303 TLSLKA | PhoP, residues 12 14 15 18 19 NHFRA (Escherichia coli, UniProt P23836) | Sort-seq, measured: YFP reporter | E. coli | PhoQ-PhoP variant library, with: 10 µM Mg2+ | reference: high Mg2+ state, higher = stronger signaling | fold induction | 5.44

Some of these lines once more (sample 1):
Sequence | log fluorescence [z-score]
GACGGTATCCGTCTCGGGACGTGCTAG | 0.012
